Assay results from different studies.
Each line is one published result; not all experiments were run side by side. “And” joins repeats or separate records; there may be more than shown. ± gives the spread as reported.
rep main protease: Replicase polyprotein 1ab, main protease (rep, Severe acute respiratory syndrome coronavirus 2, UniProt P0DTD1)
Spike glycoprotein: Spike glycoprotein (Severe acute respiratory syndrome coronavirus 2, UniProt P0DTC2)

| SMILES | target | test | test system | conditions | how to read | endpoint | result |
| --- | --- | --- | --- | --- | --- | --- | --- |
| Cc1cc(C(=O)N2[C@@H]3CCC[C@H]2CC(NC(=O)c2cc[nH]c(=O)c2)C3)cc(=O)[nH]1 (stereo partly shown) | rep main protease | enzyme activity, inhibitor |  | 5 µM, run 2 |  | inhibition | 13.5% |
| C[C@@H]1O[C@@H](O[C@@H]2C(=O)c3c(O)cc(O)cc3O[C@@H]2c2ccc(O)c(O)c2)[C@H](O)[C@H](O)[C@H]1O | rep main protease | reporter gene (mKate2), inhibitor |  | 20 µM |  | inhibition | -0.476% |
| COc1cc2c(cc1O)[C@@H](Cc1ccc(O)c(Oc3ccc(C[C@@H]4c5cc(OC)c(OC)cc5CCN4C)cc3)c1)N(C)CC2 | Spike glycoprotein | binding, biolayer interferometry |  |  |  | kon | 307 M⁻¹ s⁻¹ |
| Cc1cncc(CC(=O)N2CCC[C@H]([C@H]3CCN(C(=O)c4cnc5cc(C)ccc5c4)C3)C2)c1 | rep main protease | enzyme activity, inhibitor |  | 5 µM, run 2 |  | inhibition | 10.5% |
| Oc1cc(O)c2c(c1)O[C@H](c1cc(O)c(O)c(O)c1)[C@H](O)C2 | Spike glycoprotein | binding, BLI |  |  |  | kon | 139 M⁻¹ s⁻¹ |
| Cc1cc2ncc(C(=O)NCC(C)(C)NCC(=O)N3CCC[C@H]3C#N)cn2n1 | rep main protease | reporter gene (Gaussia luciferase), inhibitor |  | 20 µM |  | inhibition | -1% |
| CC1(C)[C@@H](O)CC[C@]2(C)[C@H]3C(=O)C=C4[C@@H]5C[C@@](C)(C(=O)O)CC[C@]5(C)CC[C@@]4(C)[C@]3(C)CC[C@@H]12 | Spike glycoprotein | binding, BLI |  |  |  | kon | 296 M⁻¹ s⁻¹ |
| Nc1ncnc2c1ncn2[C@@H]1O[C@H](COP(=O)(O)OP(=O)(O)OP(=O)(O)O)[C@@H](O)[C@H]1O | Genome polyprotein, 3D RNA polymerase (Human poliovirus 1 Mahoney, UniProt P03300) | substrate |  |  |  | kpol | 10 ± 1 s⁻¹ |
| Cc1ccc(C#Cc2ccc(S(=O)(=O)N[C@H](Cc3c[nH]c4ccccc34)C(=O)O)s2)cc1 | rep main protease | viral replication, mKate2 reporter | SARS-CoV-2 | 20 µM |  | inhibition | -0.509% |
| O=C(N[C@@H](CNC(=O)[C@@H]1CCCc2[nH]cnc21)c1ccc2ccccc2c1)c1cncc(F)c1 | rep main protease | enzyme activity, inhibitor |  | 5 µM, run 1 |  | inhibition | 13.1% |
| CC[C@H](C)[C@H](NC(=O)[C@@H]1CCCN1C(=O)[C@H](C)NC(=O)[C@@H]1CSSC[C@@H]2NC(=O)[C@H](CC(=O)O)NC(=O)[C@H](CCCNC(=N)N)NC(=O)[C@H](CCC(=O)O)NC(=O)[C@H](CCCNC(=N)N)NC(=O)CNC(=O)[C@H](CC(=O)O)NC(=O)[C@@H]3CSSC[C@H](NC(=O)[C@H](CCC(=O)O)NC(=O)[C@H](CC(C)C)NC(=O)CNC(=O)[C@H](C)NC(=O)[C@H](CSSC[C@H](NC(=O)[C@H](Cc4ccccc4)NC(=O)[C@@H](N)CO)C(=O)N[C@@H](CC(C)C)C(=O)N[C@@H](C(C)C)C(=O)N[C@@H](CCCCN)C(=O)N[C@@H](Cc4c[nH]c5ccccc45)C(=O)N[C@@H](CCCCN)C(=O)N[C@@H](CCC(N)=O)C(=O)N3)NC2=O)C(=O)N[C@@H](Cc2c[nH]c3ccccc23)C(=O)N[C@@H](CCCCN)C(=O)N[C@@H](CCCNC(=N)N)C(=O)N[C@@H](CO)C(=O)N[C@@H](CCCNC(=N)N)C(=O)N[C@@H](CC(N)=O)C(=O)N[C@@H](CCCCN)C(=O)N[C@@H](CO)C(=O)N[C@@H](CO)C(=O)N[C@@H](C(C)C)C(=O)N1)C(=O)N[C@H](C(=O)O)[C@@H](C)O | Acid-sensing ion channel 1 (ASIC1, Homo sapiens, UniProt P78348) | outside-out patch clamp | HEK-293T ASIC1a knockout | 100 nM, wild type | relative to: before toxin | deactivation fold change | 0.91 ± 0.27 fold |
| Cc1cc(C(=O)N2CCC3(CC2)CN(C(=O)C[C@@H]2CC[C@H](O)C2)Cc2ccccc2O3)n[nH]1 | rep main protease | enzyme activity, inhibitor |  | 5 µM, run 2 |  | inhibition | 11.6% |
| CCc1c(C(=O)C(N)=O)c2c(OCC(=O)O)cccc2n1Cc1ccccc1 | Daboia russelii venom phospholipase A2 | enzyme activity, inhibitor | MP population | 0.01 µM, with: NOB substrate | relative to: venom alone | remaining activity | 99.1% and 100% and 96.9% |
| O=C[C@H](O)[C@@H](O)[C@@H](O)[C@H](O)CO | ctxB (Vibrio cholerae, UniProt P01556) | binding |  |  |  | Hill slope | -1.35 |
| O=C(/C=C/c1ccc(O)c(O)c1/C=C/c1ccc(O)c(O)c1)O[C@H](Cc1ccc(O)c(O)c1)C(=O)O | rep main protease | reporter gene (Gaussia luciferase), inhibitor |  | 20 µM |  | inhibition | -1.89% |
| CC[C@H](C)[C@H](NC(=O)[C@H](Cc1c[nH]cn1)NC(=O)[C@H](CO)NC(=O)CNC(=O)[C@H](CCC(=O)O)NC(=O)[C@H](CCSC)NC(=O)[C@@H](NC(=O)[C@H](Cc1c[nH]cn1)NC(=O)[C@H](CO)NC(=O)[C@H](CCSC)NC(=O)[C@H](C)NC(=O)[C@H](CC(N)=O)NC(C)=O)C(C)C)C(=O)N[C@@H](CC(N)=O)C(=O)N[C@@H](Cc1c[nH]c2ccccc12)C(=O)N[C@@H](CC(=O)O)C(=O)N[C@@H](C)C(N)=O | Polyprotein P1234, nsP2 protease domain (Chikungunya virus, UniProt Q8JUX6) | binding, phage display |  |  | direction not given | enrichment score | 136 |
| CC(=O)c1cc([N+](=O)[O-])c(Sc2ccc(F)cc2F)s1 | rep main protease | viral replication, Gluc reporter | SARS-CoV-2 | 20 µM |  | inhibition | -0.41% |
| c1ccc(C(NCc2cccnc2)(c2ccccc2)c2ccccc2)cc1 | Kcnq5 (Rattus norvegicus, UniProt F1LY25) | whole-cell patch clamp | rat calyx of Held neurons | 10 µM |  | potentiation | 8 ± 2% |
| Cc1ccc(-c2ccc(C)cn2)nc1 | rep main protease | reporter gene (Gaussia luciferase), inhibitor |  | 20 µM |  | inhibition | -3.55% |
| Cc1cncc(CC(=O)N2CCC[C@@H]([C@@H]3CCN(C(=O)c4cnn(-c5ccccn5)c4)C3)C2)c1 | rep main protease | enzyme activity, inhibitor |  | 5 µM, run 2 |  | inhibition | 20.5% |
| O=C(O[C@@H]1Cc2c(O)cc(O)cc2O[C@@H]1c1cc(O)c(O)c(O)c1)c1cc(O)c(O)c(O)c1 | Spike glycoprotein | binding |  |  |  | koff | 0.00244 s⁻¹ |
| O=C(NC[C@H](NC(=O)c1cn[nH]c1-c1ccoc1)c1ccc2ccccc2c1)c1ccccc1 | rep main protease | enzyme activity, inhibitor |  | 5 µM, run 2 |  | inhibition | 13.9% |
| CC(C)=CCc1cc2c(cc1O)O[C@H](c1ccc(O)cc1)CC2=O | Spike glycoprotein | binding |  |  |  | kon | 1940 M⁻¹ s⁻¹ |
| O=C(c1cnn2c1CCC2)N1CCCCC[C@@H](Nc2nc(-c3cccnc3)nc3c2CCC3)C1 | rep main protease | enzyme activity, inhibitor |  | 5 µM, run 2 |  | inhibition | 16.2% |
| CCc1ccccc1NC(=O)CSC(=O)NNC(=O)[C@H](Cc1c[nH]c2ccccc12)NC(=O)OC(C)(C)C | rep main protease | viral replication, mKate2 reporter | SARS-CoV-2 | 20 µM |  | inhibition | 0.135% |
| O=C(N[C@@H]1CC[C@@H]2CCN(c3nc4[nH]ncc4c(=O)[nH]3)[C@H]1C2)c1ccc2c(c1)C(=O)NCC2 | rep main protease | enzyme activity, inhibitor |  | 5 µM, mean of runs |  | inhibition | 11.4% |
| CC(C)c1ccc(NC(=O)c2cccs2)c(-c2nc3ccccc3[nH]c2=O)c1 | rep main protease | viral replication, Gluc reporter | SARS-CoV-2 | 20 µM |  | inhibition | -0.236% |
| Cc1nc(N)c2ncn(C3CCN(C(=O)c4ccc(S(=O)(=O)F)cc4)CC3)c2n1 | Calmodulin-sensitive adenylate cyclase (cya, Bacillus anthracis, UniProt P40136) |  |  |  |  | kinact | 0.00103 s⁻¹ |
